# Experimental data pooled from the literature.
# Numbered parts are unrelated; each lists some results of a single study. Substitutions count along the parent as printed.

# Set 1
# Target: CCNF, cyclin fold, Cln2 fusion (human)
# Technique: yeast growth competition, sequencing
# Medium: yeast
# Notes: strong parent motif
# Reference: not given
# Direction: higher = stronger binding
# Starting sequence: E2F1 docking peptide (human); PPVKRRLDFETDH
Variant,normalised enrichment score
L7Y,0.153
T11I,7.1
R5M,1.5
D8K,7.85
K4V,7.04
F9K,-0.0419
F9C,2.08
R5A,0.81
R6E,5.73
K4H,7.49
R6Q,6.95
P2Y,7.99
R6Y,6.71
R5T,1.78
T11Q,7.13
D12V,8
D8S,6.2
D12R,7.85
P2N,7.83
K4Q,7.22
T11K,7.29
T11V,7.22
P2Q,7.84
T11L,7.26
D12T,7.42

# Set 2
# Target: CEP164, C-terminal peptide (human)
# Technique: DHFR complementation, deep sequencing
# Medium: yeast
# Notes: single substitutions, model-inferred values
# Reference: wild type
# Direction: higher = weaker binding
# Starting sequence: PDZK1, PDZ domain 2 (human); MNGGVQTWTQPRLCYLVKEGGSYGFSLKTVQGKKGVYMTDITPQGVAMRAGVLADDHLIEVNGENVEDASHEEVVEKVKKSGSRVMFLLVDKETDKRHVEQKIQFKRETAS; partner HNRVKVYRF
Variant,binding free energy change
G45N,1.42 kcal/mol
E64H,0.171 kcal/mol
A47S,0.905 kcal/mol
V61N,1.24 kcal/mol
T39W,0.198 kcal/mol
V74H,0.214 kcal/mol
T9S,-0.0538 kcal/mol
L58T,0.217 kcal/mol
A50M,0.292 kcal/mol
V66G,1.54 kcal/mol
A47D,0.286 kcal/mol
N65E,0.235 kcal/mol
Q44I,0.671 kcal/mol
G63D,0.382 kcal/mol

# Set 3
# Target: Histone acetyltransferase KAT6A, winged helix 1, GST fusion (KAT6A, Homo sapiens, UniProt Q92794, residues 1-85)
# Technique: protein binding microarray
# Form: double-stranded DNA, one strand shown
# Medium: in vitro
# Concentration: not given
# Notes: 8-mer, flanks averaged, mean of 2 arrays, mostly near background
# Reference: not given
# Direction: higher = stronger binding
# Residues (chain): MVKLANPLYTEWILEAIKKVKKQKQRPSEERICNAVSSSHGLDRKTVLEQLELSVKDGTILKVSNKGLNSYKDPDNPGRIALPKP
Strand,E-score
AGTTTGTA,-0.0867
ACGCTGAC,0.00617
CGACCGTC,0.201
AGCTGAGG,-0.248
ACATACAG,-0.163
TCGCTAAA,0.0321
CATATGTC,-0.00319
ACTTAGCG,0.128
AATTAAAA,0.00594
AGGCCAAC,-0.2
ACGGCAAC,0.349
CTTGGATC,-0.16
AGCACAGA,-0.2
TCCTGCAA,-0.282
CGCGTTGA,0.274
ATTGAAAG,-0.165
TATACATA,-0.196
CGCGTACC,0.331
CCCTATTC,-0.0619
AGGCTAAT,-0.21
GAGACCCA,-0.0403
GACCGACC,0.0983
GTCACAAA,-0.159
AGCTGGAA,-0.178
CGTTCCTA,-0.123

# Further values, each from its own experiment
Substance,target,assay,test system,conditions,how to read,endpoint,result
"PhoQ, residues 284 288 289 292 302 303 TGYLSA","PhoP, residues 12 14 15 18 19 GQALL (Escherichia coli, UniProt P23836)","Sort-seq, item: YFP reporter",E. coli,"PhoQ-PhoP variant library, added: 10 µM Mg2+","reference: high Mg2+ state, higher = stronger signaling",fold induction,11.6
